# Assay results collected from several papers.
# Each line is one published result; not all experiments were run side by side. Numbers after ± are the reported error.
# leuA R470Q heterodimer with wild-type: 2-isopropylmalate synthase, heterodimer with wild-type (leuA, Neisseria meningitidis serogroup B, UniProt Q9JZG1, R470Q)
Substance,target,assay,system,conditions,Km [µM]
C/C1=C2/N[C@H]([C@H](CC(N)=O)[C@@]2(C)CCC(=O)NC[C@@H](C)OP(=O)(O)O[C@H]2[C@@H](O)[C@@H](n3cnc4cc(C)c(C)cc43)O[C@@H]2CO)[C@]2(C)N=C(/C(C)=C3N=C(/C=C4N=C1[C@@H](CCC(N)=O)C\4(C)C)[C@@H](CCC(N)=O)[C@]\3(C)CC(N)=O)[C@@H](CCC(N)=O)[C@]2(C)CC(N)=O.[Co],"Corrinoid adenosyltransferase CobA (btuR, Salmonella typhimurium, UniProt P31570, F91W)",,,,5 ± 2
COC1=C(OC)C(=O)C(CC=C(C)C)=C(C)C1=O,"Type II NADH dehydrogenase (Plasmodium falciparum, UniProt Q8I302)","enzyme activity, substrate",,added: co-substrate 500 µM,2.2 ± 1.2
DNRDGNVYYF,"Serine endoprotease DegS (degS, Escherichia coli, UniProt P0AEE3)",refers to: RseA,peptide,"23 °C, added: OMP peptide",750 ± 120
O=c1[nH]c(=O)c2ncn([C@H]3O[C@@H](COP(=O)(O)O)[C@H](O)[C@@H]3O)c2[nH]1,"GMP synthase [glutamine-hydrolyzing] (guaA, Escherichia coli, UniProt P04079)","substrate, HPLC",,added: saturating ATP and NH4OAc,317 ± 55.6
CC(=O)SCCNC(=O)CCNC(=O)[C@H](O)C(C)(C)COP(=O)(O)OP(=O)(O)OC[C@H]1O[C@@H](n2cnc3c(N)ncnc32)[C@H](O)[C@@H]1OP(=O)(O)O,leuA R470Q heterodimer with wild-type,"enzyme activity, substrate, DTP-coupled",,"R470Q heterodimer, one chain, added: α-ketoisovalerate 300 µM",38 ± 4
c1ccc([C@@H]2CO2)cc1,Karenia brevis epoxide hydrolase,substrate,,pH 7.0,6240
Cc1cc(=O)oc2c(F)c(OP(=O)(O)O)c(F)cc12,"Tyrosine-protein phosphatase non-receptor type 11 (PTPN11, Homo sapiens, UniProt Q06124, E76Q)","phosphatase activity, substrate",,"0.05 nM enzyme, pH 7.2, E76Q mutant basal no peptide",890 ± 50
CC(C)(OO)c1ccccc1,"gpx2 (Trypanosoma brucei, UniProt Q869A6, T78N)",,,,346 ± 88
Nc1ncnc2c1ncn2[C@@H]1O[C@H](COP(=O)(O)OP(=O)(O)OP(=O)(O)O)[C@@H](O)[C@H]1O,"Tyrosine--tRNA ligase 2 (tyrS2, Pseudomonas aeruginosa, UniProt Q9I5Q3)","substrate, ATP-PPi exchange",,"TyrRS-Z, co-substrate 2 mM",496
Cc1cc(=O)oc2cc(NC(=O)[C@H](CCCN=C(N)N)NC(=O)[C@@H]3CCCN3)ccc12,"DPAP1 (Plasmodium falciparum, UniProt Q8IIJ9)","hydrolysis, substrate, fluorogenic dipeptide, native enzyme",,"pH 6.0, 25 °C, added: 30 mM chloride",84 ± 9
O=C(O)CCl,"SLC5A8 (Homo sapiens, UniProt Q8N695)",substrate,,,177 ± 16
CC(C)C(=O)C(=O)O,leuA R470Q heterodimer with wild-type,"enzyme activity, substrate, DTP-coupled",,"R470Q heterodimer, one chain, added: acetyl-CoA 300 µM",37 ± 3
CCC1OC1CC(=O)OC(C#N)c1ccc2cc(OC)ccc2c1 (stereo not shown),Karenia brevis epoxide hydrolase,substrate,,pH 7.0,161
Cc1c(C)n2c(CCl)c(C)c(=O)n2c1=O,"protein BstA (Staphylococcus aureus, UniProt A0A0H2XDW9)",substrate,,"pH 7.0, 37 °C, added: 220 nM enzyme",61 ± 26
C[C@H](N)C(=O)O,BasC (Carnobacterium sp. AT7),substrate,proteoliposomes,"pH 7.4, room temperature, intracellular side, added: [3H]L-serine",1500 ± 200
O=[N+]([O-])c1ccc(Cl)c([N+](=O)[O-])c1,"Glutathione S-transferase mu 1 (Clonorchis sinensis, UniProt H2KRI2)",substrate,,,741
Oc1cc(Cl)ccc1Oc1ccc(Cl)cc1Cl,laccase LacT (Brevibacillus agri),substrate,,"pH 3.0, 50 °C, 20% ethanol",42.4 ± 1.99
CCCCCCCCCCCC(=O)OC1CC(C)(C)N([O])C(C)(C)C1,"Cocaine esterase (CES2, Homo sapiens, UniProt O00748)",,,,38.3 ± 5.13
C(CCC1CO1)CC1CO1 (stereo not shown),Karenia brevis epoxide hydrolase,substrate,,pH 7.0,4800
C[C@H]1CCCC(=O)CCC/C=C/c2cc(O)cc(O)c2C(=O)O1,"zhd101 (Clonostachys rosea, UniProt Q8NKB0, D157K/E171K)","substrate, HPLC",,"10 min, pH 5.5, 37 °C, 1% acetonitrile",83200 ± 5460
CC1Nc2nc(N)[nH]c(=O)c2NC1C (stereo not shown),"Phenylalanine-4-hydroxylase (phhA, Chromobacterium violaceum, UniProt P30967)","enzyme activity, cofactor",,"pH 7.4, 20 °C, wild-type enzyme, added: saturating phenylalanine",152 ± 2
CC(=O)SCC[N+](C)(C)C,acetylcholinesterase,substrate,"Lymnaea acuminata, nervous tissue","pH 8.0, 25 °C, no inhibitor",6730
